Results gathered from unrelated publications.
A part holds a random share of what one study measured. Changes are numbered by the printed parent chain.

Study 1
Target: ABI1, truncated, D143A, DHFR fusion (Arabidopsis thaliana)
Technique: DHFR PCA, deep sequencing
Medium: yeast
Notes: methotrexate growth selection, single substitutions
With: (+)-ABA 200 µM
Reference: wild-type fitted maximum
Direction: higher = stronger binding
Quantity: relative binding score
Starting sequence: PYL1, truncated, DHFR fusion (Arabidopsis thaliana); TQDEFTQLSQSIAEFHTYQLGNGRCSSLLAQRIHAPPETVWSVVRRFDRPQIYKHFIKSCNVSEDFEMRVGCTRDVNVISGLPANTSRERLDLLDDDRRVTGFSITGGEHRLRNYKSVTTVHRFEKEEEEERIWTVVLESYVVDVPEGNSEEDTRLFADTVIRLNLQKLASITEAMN; partner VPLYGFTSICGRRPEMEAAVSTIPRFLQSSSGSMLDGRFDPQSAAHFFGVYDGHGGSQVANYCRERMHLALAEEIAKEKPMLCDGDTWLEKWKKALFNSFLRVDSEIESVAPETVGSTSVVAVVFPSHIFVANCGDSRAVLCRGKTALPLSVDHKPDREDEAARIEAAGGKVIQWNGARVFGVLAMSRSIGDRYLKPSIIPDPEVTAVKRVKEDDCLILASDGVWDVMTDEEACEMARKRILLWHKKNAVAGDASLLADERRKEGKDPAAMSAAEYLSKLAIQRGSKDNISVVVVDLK
G23N: 98.8%
G71W: 23%
I52E: 99.6%
V43C: 82.2%
L93M: 80%
N114D: 77.7%
V121Q: 2.88%
D95C: 91.7%
A13R: 101%
E139F: 20.7%
E128W: 103%
Q167I: 86.1%
E152T: 92.5%
V161F: 88.9%
E38K: 89.6%
S150K: 75.2%
D95T: 18.4%
R123G: 102%
W41N: -42.2%

Study 2
Target: RNA binding protein fox-1 homolog 2, RRM domain, GST-SBP tag (RBFOX2, Homo sapiens, UniProt O43251-10, residues 100-194)
Technique: RNA Bind-n-Seq
Molecule type: RNA
Medium: in vitro
Concentration: 365 nM
Notes: natural RNA segment, single round, ends assumed
Reference: no-protein control
Direction: higher = stronger binding
Quantity: RBNS enrichment (R)
Constant ends, left off below: GGGAGUUCUACAGUCCGACGAUC … UGGAAUUCUCGGGUGCCAA
CAGGCGAAGCUGGGUCUUGUGCAUGUUCCCACUGUUUCAUCCUGUCCUCGCCAGGGAUCUGGGUGGGACAGUCACACCCACGGCCUGCUACCCACCAGGUUGUACUUAAC: 4.52
UUUCUCAGAGUCUUUUUUUUUUUUUGAGACAGAGUCUCGCUGUUACCCAGGCUGGAGUGCAAUGGCGCAAACUUGGCUCACUGCAACCUCUGCCCCCUGGGUUCAAGCGA: 0.365
GGUUGACCUAAAAUUAGCCUUACAAAGGAGAAAGGACCACAUUGCUUACUUGAAACAGACAAUGAAAACAACCAAAGUGAUAUAUAAAAUAGUUGAUGAGAACUAGACUU: 2.19
UUCUCACAAUGAUGCAGAUUAGGAAAAUUGAAGUAUUCAGGAAACAGGGGUGGUUGCUAAGGUUCCGUACCUGCUCUUUAUAAAUUUAUAGUGGCUUUAUCCUGACAUAG: 0.563
ACCAAGGAGACCCCCAAGGGUACCACUGCCUGAGGACAGCAGAGAGAACCUGCCUCCCUCCCAGAAGUCACAGCACCUGCUUCUCAGCUCCUCAUGUGUGCAUGUGUGCC: 1
ACCUCAGGGCCACUGCAUUGUUUUGCCAAAAUCUUACUCCAGAUUAAGUACAGAACUUGGUUUCUAACCGUAUUUAGUUUUAUAUGUGUAUUCAGACAGUUAGAGUUUUG: 0.374
CUGAGUCACCUUCUAUCUAUACUUUGCUUAAAAGCUAUCCCAGAUACUCCCCCUUGAGGAGCUCAUGCCCUUCCUUCCUCUUUAUUCGAGCAUACUGGCAAUGCAUUGGA: 0.926
AAUCCAGAUGUUUCGUUUCCAGGUGCAGCAGCGCUGCCUUGUGCUUUCCUGUGACUUUAAGAGCAUCUGAUGUUCUGUUCUCUUCUCCCACUACGCAACCCACUGCCCUG: 2.48

Study 3
Target: Histone acetyltransferase KAT6A, winged helix 1, GST fusion (KAT6A, Homo sapiens, UniProt Q92794, residues 1-85)
Technique: protein binding microarray
Molecule type: double-stranded DNA, one strand shown
Medium: in vitro
Concentration: not given
Notes: 8-mer, flanks averaged, mean of 2 arrays, mostly near background
Reference: not given
Direction: higher = stronger binding
Quantity: E-score
Target sequence (chain): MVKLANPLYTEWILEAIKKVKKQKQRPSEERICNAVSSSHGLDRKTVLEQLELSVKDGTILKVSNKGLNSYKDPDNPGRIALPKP
CGTTCTTC: 0.0516
AACTATGG: -0.0463
CGGACTAC: 0.201
CTCGATGA: -0.0444
GATGGGGC: -0.0279
CAATAAGA: -0.252
CCCAGAGG: -0.168
AGAATTGA: -0.18
ATCCCCCC: -0.222
TCCTTGAA: -0.000135
AATTCTCT: -0.102
AAAGACCC: -0.127
ATCTATTG: -0.163
ATATGCAG: -0.176
TCTCCCAA: -0.116
ATCCAATC: -0.161
CCGGCCCA: 0.124
ACAATTAC: -0.162
CGAGTGAG: -0.0108

Study 4
Target: CCNB1, cyclin fold, Cln2 fusion (human)
Technique: yeast growth competition, sequencing
Medium: yeast
Notes: weak parent motif
Reference: not given
Direction: higher = stronger binding
Quantity: normalised enrichment score
Starting sequence: CDKN1A docking peptide (human); SKACRRLFGPVDS
D12G: -0.152
D12K: -0.228
D12Y: 0.149
P10D: 0.322
P10K: 0.367
K2G: 0.569
R5E: -0.111
F8K: 0.397
A3H: 0.179
R6G: -0.147
A3G: 0.126
R5I: -0.0813
V11L: 0.12
K2N: 0.322
G9A: 0.581
G9K: 0.373
P10F: 0.0621

Excerpt of the above (study 2):
AAUCCAGAUGUUUCGUUUCCAGGUGCAGCAGCGCUGCCUUGUGCUUUCCUGUGACUUUAAGAGCAUCUGAUGUUCUGUUCUCUUCUCCCACUACGCAACCCACUGCCCUG: 2.48
CUGAGUCACCUUCUAUCUAUACUUUGCUUAAAAGCUAUCCCAGAUACUCCCCCUUGAGGAGCUCAUGCCCUUCCUUCCUCUUUAUUCGAGCAUACUGGCAAUGCAUUGGA: 0.926
UUCUCACAAUGAUGCAGAUUAGGAAAAUUGAAGUAUUCAGGAAACAGGGGUGGUUGCUAAGGUUCCGUACCUGCUCUUUAUAAAUUUAUAGUGGCUUUAUCCUGACAUAG: 0.563
GGUUGACCUAAAAUUAGCCUUACAAAGGAGAAAGGACCACAUUGCUUACUUGAAACAGACAAUGAAAACAACCAAAGUGAUAUAUAAAAUAGUUGAUGAGAACUAGACUU: 2.19
UUUCUCAGAGUCUUUUUUUUUUUUUGAGACAGAGUCUCGCUGUUACCCAGGCUGGAGUGCAAUGGCGCAAACUUGGCUCACUGCAACCUCUGCCCCCUGGGUUCAAGCGA: 0.365
ACCAAGGAGACCCCCAAGGGUACCACUGCCUGAGGACAGCAGAGAGAACCUGCCUCCCUCCCAGAAGUCACAGCACCUGCUUCUCAGCUCCUCAUGUGUGCAUGUGUGCC: 1
ACCUCAGGGCCACUGCAUUGUUUUGCCAAAAUCUUACUCCAGAUUAAGUACAGAACUUGGUUUCUAACCGUAUUUAGUUUUAUAUGUGUAUUCAGACAGUUAGAGUUUUG: 0.374
